Experimental data gathered from unrelated publications.
Compare with care: the assays were run in different laboratories. ± marks the error that the study gave.

`O=c1ccn([C@@H]2O[C@H](CO)[C@@H](O)[C@H]2F)c(=O)[nH]1` gave a CC50 of greater than 250 µM (MOLT-4; cell growth or viability, SRB; 11 days).
For `COc1ccc(-n2c(SCCCN3CCOCC3)nnc2[C@H](Cc2ccccc2)NC(=O)Cc2c(C)[nH]c3ccccc23)cc1`, the CC50 was 48.5 ± 19.9 µM (MT-4).
`Nc1ncnc2c1ncn2[C@@H]1O[C@H](CO)[C@@H](O)[C@H]1F` has a CC50 of 81 µM (MOLT-4; cell growth or viability, SRB; 11 days).
`COc1ccc(-n2c(SCc3ccncc3)nnc2[C@H](Cc2ccccc2)NC(=O)Cc2c(C)[nH]c3ccccc23)cc1` has a CC50 of 24.8 ± 2.41 µM (MT-4).
The CC50 of `Cc1nc([C@@H](NC(=O)c2ccc(-c3ccc(Cl)cc3)[nH]2)[C@@H]2CCCCN2)sc1CO` is reported as roughly 20 µM (MT2; cell growth or viability, XTT).
For `O=[N+]([O-])/C(Br)=C/c1ccco1`, the CC50 was 16.6 ± 3.8 µM (KB; cell viability, alamarBlue; 72 h, 10% FCS).
For `Nc1ccn([C@@H]2O[C@H](CO)[C@@H](O)[C@H]2F)c(=O)n1`, the CC50 was 7.7 µM (MOLT-4; cell growth or viability, SRB; 11 days).
For `COc1ccc(-n2c(SCCF)nnc2[C@H](Cc2ccccc2)NC(=O)Cc2c(C)[nH]c3ccccc23)cc1`, the CC50 was 25 ± 1.45 µM (MT-4).
For `OC[C@H]1O[C@@H](n2cnc3c(O)ncnc32)[C@H](F)[C@@H]1O`, the CC50 was greater than 250 µM (MOLT-4; sulforhodamine B; 11 days, galactose medium).
`C/C(=C\c1ccco1)[N+](=O)[O-]` has a CC50 of 25.4 ± 3.8 µM (KB; cell viability, alamarBlue; 72 h, 10% FCS).
`COc1ccc(-n2c(SCCN(C)C)nnc2[C@H](Cc2ccccc2)NC(=O)Cc2c(C)[nH]c3ccccc23)cc1` has a CC50 of 22.9 ± 0.38 µM (MT-4).
The CC50 of `CCOC(=O)c1c(C(=O)OC)cn(CC(c2cn(C)c3ccccc23)c2cn(C)c3ccccc23)c1C` is reported as greater than 200 µM (DH82; cell growth or viability, MTS; 72 h).
The CC50 of `COc1cc(/C=C/C(=O)N2CCN(c3ccccc3)CC2)ccc1O` is reported as greater than 200 µM (L929; cell growth or viability, MTT; 48 h).
`CCN(Cc1cccc(S(=O)(=O)O)c1)c1ccc(C(=C2C=CC(=[N+](CC)Cc3cccc(S(=O)(=O)[O-])c3)C=C2)c2ccccc2)cc1` gave a CC50 of 436 ± 32.6 µM (U87.CD4.R5.X4; 3 days).
`COc1cc(O)cc(O)c1C(=O)/C=C/c1ccccc1` gave a CC50 of greater than 100 µM (MT2; cell growth or viability, ATP luminescence; 48 h).
`COc1ccc(-n2c(SCCN3CCOCC3)nnc2[C@H](Cc2ccccc2)NC(=O)Cc2c(C)[nH]c3ccccc23)cc1` has a CC50 of 81.9 ± 28.2 µM (MT-4).
`COc1ccc(S(=O)(=O)O)cc1N=Nc1c(S(=O)(=O)O)cc2cc(NCc3nc(CNc4cc(C)c(N=Nc5cc(S(=O)(=O)O)cc6cc(S(=O)(=O)O)cc(O)c56)cc4OC)nc(Nc4ccccc4)n3)ccc2c1O` has a CC50 of 264 ± 29.3 µM (MT2; 3 days).

Repeated from above:
`COc1cc(O)cc(O)c1C(=O)/C=C/c1ccccc1` gave a CC50 of greater than 100 µM (MT2; cell growth or viability, ATP luminescence; 48 h).
For `COc1ccc(-n2c(SCCF)nnc2[C@H](Cc2ccccc2)NC(=O)Cc2c(C)[nH]c3ccccc23)cc1`, the CC50 was 25 ± 1.45 µM (MT-4).
`COc1ccc(S(=O)(=O)O)cc1N=Nc1c(S(=O)(=O)O)cc2cc(NCc3nc(CNc4cc(C)c(N=Nc5cc(S(=O)(=O)O)cc6cc(S(=O)(=O)O)cc(O)c56)cc4OC)nc(Nc4ccccc4)n3)ccc2c1O` has a CC50 of 264 ± 29.3 µM (MT2; 3 days).
